Results pooled from the literature.
Protocols differ between the studies behind these lines.
Method: steady-state kinetics
B1: UGT1A9 (Homo sapiens, UniProt O60656); chain GKLLVVPMDGSHWFTMRSVVEKLILRGHEVVVVMPEVSWQLGRSLNCTVKTYSTSYTLEDLDREFKAFAHAQWKAQVRSIYSLLMGSYNDIFDLFFSNCRSLFKDKKLVEYLKESSFDAVFLDPFDNCGLIVAKYFSLPSVVFARGILCHYLEEGAQCPAPLSYVPRILLGFSDAMTFKERVRNHIMHLEEHLLCHRFFKNALEIASEILQTPVTEYDLYSHTSIWLLRTDFVLDYPKPVMPNMIFIGGINCHQGKPLPMEFEAYINASGEHGIVVFSLGSMVSEIPEKKAMAIADALGKIPQTVLWRYTGTRPSNLANNTILVKWLPQNDLLGHPMTRAFITHAGSHGVYESICNGVPMVMMPLFGDQMDNAKRMETKGAGVTLNVLEMTSEDLENALKAVINDKSYKENIMRLSSLHKDRPVEPLDLAVFWVEFVMRHKGAPHLRPAAHDLTWYQYHSLDVIGFLLAVVLTVAFITFKCCAYGYRKCLGKKGRVKKAHKSKTH
B2: enzyme R120K (Arabidopsis thaliana, UniProt O82390); chain MNARALLCSSNIHSLYTSNRPPEKTSSSRSLRNLKPSPKSLRVWIYPRNRSSVFRVLVRSSDKSESSNSYYVEGDKVSGNNDVVSDSPSSIVLPWWEEFPKRWVIVLLCFSAFLLCNMDKVNMSIAILPMSAEYGWNPATVGLIQSSFFWGYLLTQIAGGIWADTVGGKRVLGFGVIWWSIATILTPVAAKLGLPYLLVVRAFMGVGEGVAMPAMNNILSKWVPVQERSRSLALVYSGMYLGSVTGLAFSPFLIHQFGWPSVFYSFGSLGTVWLTLWLTKAESSPLEDPTLLPEERKLIADNCASKEPVKSIPWRLILSKPPVWALISCHFCHNWGTFILLTWMPTYYHQVLKFNLMESGLLSVFPWMTMAISANAGGWIADTLVSRGFSVTNVRKIMQTIGFLGPAFFLTQLKHIDSPTMAVLCMACSQGTDAFSQSGLYSNHQDIAPRYSGVLLGLSNTAGVLAGVLGTAATGHILQHGSWDDVFTISVGLYLVGTVIWNLFSTGEKIID
B3: COMT (Homo sapiens, UniProt P21964); chain MPEAPPLLLAAVLLGLVLLVVLLLLLRHWGWGLCLIGWNEFILQPIHNLLMGDTKEQRILNHVLQHAEPGNAQSVLEAIDTYCEQKEWAMNVGDKKGKIVDAVIQEHQPSVLLELGAYCGYSAVRMARLLSPGARLITIEINPDCAAITQRMVDFAGVKDKVTLVVGASQDIIPQLKKKYDVDTLDMVFLDHWKDRYLPDTLLLEECGLLRKGTVLLADNVICPGAPDFLAHVRGSSCFECTHYQSFLEYREVVDGLEKAIYKGPGSEAGP
B4: FMO3 E158K/E308G (Homo sapiens, UniProt P31513); chain GKKVAIIGAGVSGLASIRSCLEEGLEPTCFEKSNDIGGLWKFSDHAEEGRASIYKSVFSNSSKEMMCFPDFPFPDDFPNFMHNSKIQEYIIAFAKEKNLLKYIQFKTFVSSVNKHPDFATTGQWDVTTERDGKKESAVFDAVMVCSGHHVYPNLPKKSFPGLNHFKGKCFHSRDYKEPGVFNGKRVLVVGLGNSGCDIATELSRTAEQVMISSRSGSWVMSRVWDNGYPWDMLLVTRFGTFLKNNLPTAISDWLYVKQMNARFKHENYGLMPLNGVLRKEPVFNDELPASILCGIVSVKPNVKEFTGTSAIFEDGTIFEGIDCVIFATGYSFAYPFLDESIIKSRNNEIILFKGVFPPLLEKSTIAVIGFVQSLGAAIPTVDLQSRWAAQVIKGTCTLPSMEDMMNDINEKMEKKRKWFGKSETIQTDYIVYMDELSSFIGAKPNIPWLFLTDPKLAMEVYFGPCSPYQFRLVGPGQWPGARNAILTQWDRSLKPMQTRVVGRLQKPCFFFHWLKLFAIPILLIAVFLVLT
B5: UGT1A1 (Homo sapiens, UniProt P22309); chain HAGKILLIPVDGSHWLSMLGAIQQLQQRGHEIVVLAPDASLYIRDGAFYTLKTYPVPFQREDVKESFVSLGHNVFENDSFLQRVIKTYKKIKKDSAMLLSGCSHLLHNKELMASLAESSFDVMLTDPFLPCSPIVAQYLSLPTVFFLHALPCSLEFEATQCPNPFSYVPRPLSSHSDHMTFLQRVKNMLIAFSQNFLCDVVYSPYATLASEFLQREVTVQDLLSSASVWLFRSDFVKDYPRPIMPNMVFVGGINCLHQNPLSQEFEAYINASGEHGIVVFSLGSMVSEIPEKKAMAIADALGKIPQTVLWRYTGTRPSNLANNTILVKWLPQNDLLGHPMTRAFITHAGSHGVYESICNGVPMVMMPLFGDQMDNAKRMETKGAGVTLNVLEMTSEDLENALKAVINDKSYKENIMRLSSLHKDRPVEPLDLAVFWVEFVMRHKGAPHLRPAAHDLTWYQYHSLDVIGFLLAVVLTVAFITFKCCAYGYRKCLGKKGRVKKAHKSKTH
B6: FMO3 V277A (Homo sapiens, UniProt P31513); chain GKKVAIIGAGVSGLASIRSCLEEGLEPTCFEKSNDIGGLWKFSDHAEEGRASIYKSVFSNSSKEMMCFPDFPFPDDFPNFMHNSKIQEYIIAFAKEKNLLKYIQFKTFVSSVNKHPDFATTGQWDVTTERDGKKESAVFDAVMVCSGHHVYPNLPKESFPGLNHFKGKCFHSRDYKEPGVFNGKRVLVVGLGNSGCDIATELSRTAEQVMISSRSGSWVMSRVWDNGYPWDMLLVTRFGTFLKNNLPTAISDWLYVKQMNARFKHENYGLMPLNGALRKEPVFNDELPASILCGIVSVKPNVKEFTETSAIFEDGTIFEGIDCVIFATGYSFAYPFLDESIIKSRNNEIILFKGVFPPLLEKSTIAVIGFVQSLGAAIPTVDLQSRWAAQVIKGTCTLPSMEDMMNDINEKMEKKRKWFGKSETIQTDYIVYMDELSSFIGAKPNIPWLFLTDPKLAMEVYFGPCSPYQFRLVGPGQWPGARNAILTQWDRSLKPMQTRVVGRLQKPCFFFHWLKLFAIPILLIAVFLVLT
B7: enzyme S124T (Arabidopsis thaliana, UniProt O82390); chain MNARALLCSSNIHSLYTSNRPPEKTSSSRSLRNLKPSPKSLRVWIYPRNRSSVFRVLVRSSDKSESSNSYYVEGDKVSGNNDVVSDSPSSIVLPWWEEFPKRWVIVLLCFSAFLLCNMDRVNMTIAILPMSAEYGWNPATVGLIQSSFFWGYLLTQIAGGIWADTVGGKRVLGFGVIWWSIATILTPVAAKLGLPYLLVVRAFMGVGEGVAMPAMNNILSKWVPVQERSRSLALVYSGMYLGSVTGLAFSPFLIHQFGWPSVFYSFGSLGTVWLTLWLTKAESSPLEDPTLLPEERKLIADNCASKEPVKSIPWRLILSKPPVWALISCHFCHNWGTFILLTWMPTYYHQVLKFNLMESGLLSVFPWMTMAISANAGGWIADTLVSRGFSVTNVRKIMQTIGFLGPAFFLTQLKHIDSPTMAVLCMACSQGTDAFSQSGLYSNHQDIAPRYSGVLLGLSNTAGVLAGVLGTAATGHILQHGSWDDVFTISVGLYLVGTVIWNLFSTGEKIID
B8: UGT3A2 A344T (Homo sapiens, UniProt Q3SY77); chain AKILTISTVGGSHYLLMDRVSQILQDHGHNVTMLNHKRGPFMPDFKKEEKSYQVISWLAPEDHQREFKKSFDFFLEETLGGRGKFENLLNVLEYLALQCSHFLNRKDIMDSLKNENFDMVIVETFDYCPFLIAEKLGKPFVAILSTSFGSLEFGLPIPLSYVPVFRSLLTDHMDFWGRVKNFLMFFSFCRRQQHMQSTFDNTIKEHFTEGSRPVLSHLLLKAELWFINSDFAFDFARPLLPNTVYVGGLMEKPIKPVPQDLENFIAKFGDSGFVLVTLGSMVNTCQNPEIFKEMNNAFAHLPQGVIWKCQCSHWPKDVHLATNVKIVDWLPQSDLLAHPSIRLFVTHGGQNSIMEAIQHGVPMVGIPLFGDQPENMVRVEAKKFGVSIQLKKLKAETLALKMKQIMEDKRYKSAAVAASVILRSHPLSPTQRLVGWIDHVLQTGGATHLKPYVFQQPWHEQYLLDVFVFLLGLTLGTLWLCGKLLGMAVWWLRGARKVKET
B9: Comt (Rattus norvegicus, UniProt P22734); chain MPLAAVSLGLLLLALLLLLRHLGWGLVTIFWFEYVLQPVHNLIMGDTKEQRILRYVQQNAKPGDPQSVLEAIDTYCTQKEWAMNVGDAKGQIMDAVIREYSPSLVLELGAYCGYSAVRMARLLQPGARLLTMEMNPDYAAITQQMLNFAGLQDKVTILNGASQDLIPQLKKKYDVDTLDMVFLDHWKDRYLPDTLLLEKCGLLRKGTVLLADNVIVPGTPDFLAYVRGSSSFECTHYSSYLEYMKVVDGLEKAIYQGPSSPDKS
Chain of UniProt H6U1I8 (whole entry, looked up): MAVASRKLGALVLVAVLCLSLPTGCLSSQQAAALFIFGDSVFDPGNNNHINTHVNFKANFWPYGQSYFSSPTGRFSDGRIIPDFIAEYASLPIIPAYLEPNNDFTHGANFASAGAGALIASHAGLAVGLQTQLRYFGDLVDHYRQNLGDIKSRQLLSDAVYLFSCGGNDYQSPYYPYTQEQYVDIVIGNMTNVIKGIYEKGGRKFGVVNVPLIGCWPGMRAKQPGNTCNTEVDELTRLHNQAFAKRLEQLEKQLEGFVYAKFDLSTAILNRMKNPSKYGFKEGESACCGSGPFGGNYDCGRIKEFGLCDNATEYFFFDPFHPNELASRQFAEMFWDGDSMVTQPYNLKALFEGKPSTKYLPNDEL

B1 (UGT1A9)
Vmax/Km (O=c1cc(-c2ccc(O)cc2)oc2ccccc12; pH 7.4, 37 °C): 67.6 µL/min/mg

B2 (enzyme R120K)
Vmax/Km (O=P(O)(O)O; pH 6.5, 25 °C, apparent, not purified): 26.7 µL/min/mg

B3 (COMT)
Vmax/Km (O=c1oc2c(O)c(O)ccc2cc1-c1nc2ccccc2s1; human liver S9; pH 7.4, 37 °C): 112 µL/min/mg

B4 (FMO3 E158K/E308G)
Vmax/Km (CN1CCC[C@H]1c1cccnc1; HEK293 microsomes; 37 °C, not purified, together with: NADPH regenerating system): 0.0149 µL/min/mg

UGT3A2 (Homo sapiens, UniProt Q3SY77)
Vmax/Km (O=c1ccn([C@@H]2O[C@H](CO[P@@](=O)(O)O[P@@](=O)(O)O[C@H]3O[C@H](CO)[C@@H](O)[C@H](O)[C@H]3O)[C@@H](O)[C@H]2O)c(=O)[nH]1; pH 7.4, 37 °C, not purified, together with: 1-OH-pyrene 16 µM, MgCl2 10 mM, alamethicin): 4.7 µL/min/mg

B5 (UGT1A1)
Vmax/Km (COc1cc2c(cc1CC=C(C)C)C(=O)C[C@@H](c1ccc(O)cc1)O2; pH 7.4, 37 °C): 191 µL/min/mg

B6 (FMO3 V277A)
Vmax/Km (CN1CCC[C@H]1c1cccnc1; HEK293 microsomes; 37 °C, not purified, together with: NADPH regenerating system): 0.0098 µL/min/mg

B7 (enzyme S124T)
Vmax/Km (O=P(O)(O)O; pH 6.5, 25 °C, apparent, not purified): 40 µL/min/mg

enzyme (Candida albicans, UniProt A0A1D8PHX1)
Vmax/Km (CCCCCCCCCCCCCCCCCC(=O)SCCNC(=O)CCNC(=O)[C@H](O)C(C)(C)COP(=O)(O)OP(=O)(O)OC[C@H]1O[C@@H](n2cnc3c(N)ncnc32)[C@H](O)[C@@H]1OP(=O)(O)O; pH 7.4, 37 °C, apparent, not purified): 140 µL/min/mg

B8 (UGT3A2 A344T)
Vmax/Km (O=c1ccn([C@@H]2O[C@H](CO[P@@](=O)(O)O[P@@](=O)(O)O[C@H]3O[C@H](CO)[C@@H](O)[C@H](O)[C@H]3O)[C@@H](O)[C@H]2O)c(=O)[nH]1; pH 7.4, 37 °C, not purified, together with: 1-OH-pyrene 16 µM, MgCl2 10 mM, alamethicin): 1.5 µL/min/mg

enzyme (Tanacetum cinerariifolium, UniProt H6U1I8)
Vmax/Km (CC(C)=C[C@@H]1[C@@H](C(=O)SCCn2ccnc2)C1(C)C; pH 7.5, 25 °C): 1870 µL/min/mg

B9 (Comt)
Vmax/Km (O=c1oc2c(O)c(O)ccc2cc1-c1nc2ccccc2s1; rat liver S9; pH 7.4, 37 °C): 763 µL/min/mg

A few entries again:
B8 (UGT3A2 A344T)
Vmax/Km (O=c1ccn([C@@H]2O[C@H](CO[P@@](=O)(O)O[P@@](=O)(O)O[C@H]3O[C@H](CO)[C@@H](O)[C@H](O)[C@H]3O)[C@@H](O)[C@H]2O)c(=O)[nH]1; pH 7.4, 37 °C, not purified, together with: 1-OH-pyrene 16 µM, MgCl2 10 mM, alamethicin): 1.5 µL/min/mg

enzyme (Tanacetum cinerariifolium, UniProt H6U1I8)
Vmax/Km (CC(C)=C[C@@H]1[C@@H](C(=O)SCCn2ccnc2)C1(C)C; pH 7.5, 25 °C): 1870 µL/min/mg
